Measurements from different studies.
Protocols differ between the studies behind these lines. ± gives the spread as reported. Converted amounts (≈) assume the structure as drawn.

Compound | assay | system | conditions | how to read | measurement | result
COC(=O)c1ccc(/C=N/NS(=O)(=O)c2ccc(OC)c(OC)c2)cc1 |  | buffer | pH 2, 37 °C |  | chemical stability | unstable
C#CCOc1ccc(/C=C2\SC(=O)N(CC(=O)NCc3ccccc3)C2=O)cc1 | inverse Kirkwood-Buff integrals | binary solvent mixture | concentration not given, 298.15 K, mole fraction x1 0.25 |  | correlation volume | 2720 cm³/mol
CC(C)CCCC(C)CCCC(C)CCO[C@@H]1O[C@H](CO)[C@@H](O[C@H]2O[C@H](CO)[C@@H](O)[C@H](O)[C@H]2O)[C@H](O)[C@H]1O (stereo partly drawn) | dynamic surface tension |  | 0.0072 mmol/L |  | surface tension at induction time | 64.3 mN/m
C[Si]1(C[C@H](CN)CC(=O)O)CCCC1 | neuromuscular coordination | Wistar rat male | oral, 30 mg/kg, 1 h |  | performance time | 180 s
CCCCCCCC(=O)OC[C@H](NC(=O)[C@H](CO)NC(=O)CN)C(=O)N[C@@H](Cc1ccccc1)C(=O)N[C@@H](CC(C)C)C(=O)N[C@@H](CO)C(=O)N1CCC[C@H]1C(=O)N[C@@H](CCC(=O)O)C(=O)N[C@@H](Cc1cnc[nH]1)C(=O)N[C@@H](CCC(N)=O)C(=O)N[C@@H](CCCNC(=N)N)C(=O)N[C@H](C(=O)N[C@@H](CCC(N)=O)C(=O)N[C@@H](CCC(N)=O)C(=O)N[C@@H](CCCNC(=N)N)C(=O)N[C@@H](CCCCN)C(=O)N[C@@H](CCC(=O)O)C(=O)N[C@@H](CO)C(=O)N[C@@H](CCCCN)C(=O)N[C@@H](CCCCN)C(=O)N1CCC[C@H]1C(=O)N1CCC[C@H]1C(=O)N[C@@H](C)C(=O)N[C@@H](CCCCN)C(=O)N[C@@H](CC(C)C)C(=O)N[C@@H](CCC(N)=O)C(=O)N1CCC[C@H]1C(=O)N[C@@H](CCCNC(=N)N)C(=O)O)C(C)C |  | patients with chronic HFrEF | iv infusion, 0.1 µg/kg/min, 60 min into infusion, scale 1-10, median | direction not given | thirst score | 4
O=C1c2ccc3c4ccc5c6c(ccc(c7ccc(c2c37)C(=O)N1CCN1CCCCC1)c64)C(=O)N(CCN1CCCCC1)C5=O |  | buffer 10 mM | 40 µM, pH 7 |  | aggregation onset time | > 12 h
CCc1cc(Nc2nc(-c3ccc(-n4cnc(C)c4)c(F)c3)cs2)c(C)cc1C |  | humans | oral, 25 to 300 mg, single dose, all cohorts |  | tolerability | not toxic
CC(C)C[C@@H](NC(=O)[C@H](NC(=O)[C@H]1CCCN1)[C@H](C)O)C(=O)N[C@H](Cc1c[nH]cn1)C(=O)N[C@@H](C(=O)N[C@H](Cc1c[nH]cn1)C(=O)N[C@H](CC(N)=O)C(=O)N[C@H](CCCNC(=N)N)C(=O)N[C@H](CCCNC(=N)N)C(=O)N[C@H](CCCNC(=N)N)C(=O)N[C@H](CCCNC(=N)N)C(=O)N[C@H](CCCNC(=N)N)C(N)=O)[C@H](C)O |  | beagle dog, plasma | oral, 50 mg/kg, single dose |  | Cmax | 2380 ng/mL
C/C=C/CNC(=N)NCCCCCCCCN1CCCCCCOc2ccccc2CNC(=N)NC1=O | PAMPA | egg phosphatidylcholine in dodecane | 500 µM, 5 h, pH 7.4, room temperature |  | membrane retention | 50.8%
CC(C)c1cnc(-c2cc(Cl)ccc2F)cc1Nc1ccncc1C(=O)NC(CO)CO |  | human, advanced solid tumour | oral, dose not given, phase I monotherapy |  | grade 3 anaemia incidence | 9.5%
COc1ccc(NC(C)(C)C(=O)Nc2ccc(F)c(Cl)c2)cc1S(=O)(=O)N1CCOCC1 |  | water |  |  | kinetic solubility | 219 µM (≈ 106 µg/mL)
CC(C)(O)c1ncc([S@](N)(=O)=NC(=O)Nc2c3c(cc4c2CCC4)CCC3)s1 |  | human, plasma | oral, 600 mg, single dose, fasted, healthy volunteers |  | Tmax | 2.5 h
CCCCN1C(=O)c2cccc3c(NCCCCCCN4CCOCC4)ccc(c23)C1=O |  | water | pH 6 | baseline: fluorescein/0.1 N NaOH | fluorescence quantum yield | 0.32
CC[C@H](C)[C@H](NC(=O)[C@H](CC(C)C)NC(=O)[C@H](Cc1c[nH]c2ccccc12)NC(=O)[C@H](C)NC(=O)[C@@H](NC(=O)[C@H](Cc1ccccc1)NC(=O)[C@H](CC(=O)O)NC(=O)[C@H](CCCNC(=N)N)NC(=O)[C@H](C)NC(=O)[C@H](C)NC(=O)[C@H](CC(C)C)NC(=O)[C@H](C)NC(=O)[C@H](CC(=O)O)NC(=O)[C@H](CC(C)C)NC(=O)[C@@H](NC(=O)[C@@H](NC(=O)[C@H](C)NC(=O)[C@H](CC(C)C)NC(=O)[C@H](CCC(=O)O)NC(=O)[C@H](CO)NC(=O)[C@H](CO)NC(=O)[C@H](Cc1ccccc1)NC(=O)[C@@H](NC(=O)CNC(=O)[C@H](CCC(=O)O)NC(=O)CNC(=O)[C@@H](N)Cc1c[nH]cn1)[C@@H](C)O)[C@@H](C)O)[C@@H](C)CC)[C@@H](C)CC)C(=O)N[C@@H](C)C(=O)N[C@H](C(=O)N[C@@H](CCCCN)C(=O)N[C@H](C(=O)N[C@H](C(=O)N[C@@H](CC(=O)O)C(=O)N[C@@H](CCCCN)C(=O)O)[C@@H](C)O)[C@@H](C)CC)[C@@H](C)O | immunoaffinity LC-MS/MS | healthy human subjects, plasma | intravenous infusion, 1 mg single dose, infused over 15 min |  | AUCinf | 2.93 nM·h
COC(=O)C1OC(Oc2c(-c3ccccc3)oc3cc(O)c(O)c(O)c3c2=O)C(O)C(O)C1O (stereo not drawn) |  | BALB/c mouse, kidney | 1 mg/kg |  | organ weight | 1.4 ± 0.1 g
COc1cc2c(cc1OC)CN(CCCCn1ccc3cc(OCC[18F])ccc31)C2 |  | male CD-1 mouse, liver | intravenous, 2 min |  | tracer uptake | 7.42 %ID/g
COc1ccc2cc(-c3ccc(-c4ccc(C)cn4)nc3)oc2c1 | TCSPC | acetonitrile | zinc complex |  | radiative decay rate constant | 0.1 ns⁻¹

Compound | assay | system | conditions | how to read | measurement | result
CC(C)[C@H](NC(=O)CNC(=O)[C@H](CCC(N)=O)NC(=O)[C@H](C)N)C(=O)O | LC-MS/MS | human, male, plasma | intravenous, 20 mg/kg three times daily, day 1, first dose, 10 min infusion, geometric mean |  | half-life | 8.4 min
Cc1[nH]nc2c1N=C(c1ccccc1Cl)c1cnc(NCC(=O)O)cc1N2 |  | human, feces and urine | oral, 10 mg | baseline: dose | excretion in feces and urine | 1.6%
C=C(c1ccc(C(=O)O)c(F)c1)c1cc2c(cc1C)C(C)(C)C=CC2(C)C |  | Sprague-Dawley rat, male, plasma | oral, 100 mg/kg, 6 h, sesame oil vehicle |  | LDL level | 9 ± 3.6 mg/dL
Cc1ccc(OCC(=O)O)cc1 |  | Sprague-Dawley rat, female, plasma | oral gavage, 30 mg/kg of parent drug | baseline: compound over parent drug | AUC(0-last) ratio | 890
COc1cc2ncnc(Oc3ccc4c(C(N)=O)c(C)oc4c3)c2cc1OC | refers to: AUC0-t | human, severe renal impairment | oral | baseline: normal renal function | decrease in exposure | ~55%
Oc1ccc2ccccc2c1/N=N/c1ccccc1 |  | rat whole blood | 16.0 µg/L, freeze-thaw cycle 1 |  | freeze-thaw stability deviation | -1%
CC[C@H](C)[C@H](NC(=O)[C@H](CCCCN)NC(=O)[C@H](CS)NC(=O)[C@H](CC(N)=O)NC(=O)[C@H](C)NC(=O)[C@H](CCCNC(=N)N)NC(=O)[C@H](CCCNC(=N)N)NC(=O)[C@H](CC(N)=O)NC(=O)[C@H](CCCNC(=N)N)NC(=O)[C@@H](NC(=O)[C@H](CCCNC(=N)N)NC(=O)[C@H](CS)NC(=O)[C@H](CO)NC(=O)[C@@H](NC(=O)[C@H](CCC(N)=O)NC(=O)[C@H](CS)NC(=O)[C@H](CCCCN)NC(=O)[C@@H](N)CCCNC(=N)N)[C@@H](C)CC)[C@@H](C)CC)C(=O)N[C@@H](CO)C(=O)N[C@@H](CS)C(=O)N[C@@H](CC(N)=O)C(=O)O | LC-MS | PBS | 0.1 mg/mL |  | single disulfide form | 8%
N#CCc1cccc(Cl)c1-c1ccc2[nH][11c](=O)[nH]c2c1 |  | mice, brain homogenate | dose not given, 30 min |  | unchanged tracer fraction | 65%
Cc1[nH]c(/C=C2\C(=O)Nc3ccc(F)cc32)c(C)c1NC(=O)CCN1CCN(C)CC1 |  | Beagle dog, both sexes, plasma | oral, 3 mg/kg |  | AUC(0-inf) | 852 ± 230 ng·h/mL
Cn1c(=O)oc2ccc(-c3ccc(CC(C#N)NC(=O)C4CNCCCO4)c(F)c3)cc21 (stereo not drawn) |  | human volunteers | dose not given, parts A and B |  | tolerability | not toxic
CCCC(CCC)NC(=O)c1ccc(OS(=O)(=O)O)c(OC)c1 |  | female Sprague-Dawley rats, plasma | oral, 200 mg/kg of parent drug | baseline: 200 over 20 mg/kg dose | AUC(0-last) ratio | 6.1
CCCCCCCCCCCCCCCC(=O)N[C@@H](CCCCN)C(=O)N[C@H](C(=O)N[C@H](C(=O)N[C@@H](CCCCN)C(=O)N[C@@H](CO)C(=O)O)[C@@H](C)O)[C@@H](C)O |  | 10 mM HEPES buffer | pH 7.4 |  | chemical stability | stable
CCNC(=O)NC1CC=C(c2cc3c(Nc4cc5ncsc5cc4F)ncnc3s2)CC1 (racemic) |  | human liver microsomes | 1 µM |  | intrinsic clearance | < 12 mL/min/g protein
N=C(N)NCCC[C@@H]1NC(=O)[C@H](Cc2c[nH]c3ccccc23)NC(=O)[C@@H](CC2CCCCC2)NC(=O)[C@@H]2CCCN2C(=O)[C@@H](NC(=O)CCc2ccccc2)CCCNC1=O | two-compartment model | C57BL/6J mice, brain | intraperitoneal, 1 mg/kg |  | beta rate constant | 0.23 h⁻¹
Cc1ccccc1/N=N/c1ccc(/N=N/c2c(O)ccc3ccccc23)c(C)c1 |  | rat whole blood | 16.0 µg/L, freeze-thaw cycle 2 |  | freeze-thaw stability deviation | 0.2%
COc1ccc(/C=C/c2ccc(-c3ccc(C)cn3)nc2)cc1 | TCSPC | acetonitrile | zinc-free ligand |  | radiative decay rate constant | 0.47 ns⁻¹

Excerpt of the above:
Compound | assay | system | conditions | how to read | measurement | result
CCCCCCCC(=O)OC[C@H](NC(=O)[C@H](CO)NC(=O)CN)C(=O)N[C@@H](Cc1ccccc1)C(=O)N[C@@H](CC(C)C)C(=O)N[C@@H](CO)C(=O)N1CCC[C@H]1C(=O)N[C@@H](CCC(=O)O)C(=O)N[C@@H](Cc1cnc[nH]1)C(=O)N[C@@H](CCC(N)=O)C(=O)N[C@@H](CCCNC(=N)N)C(=O)N[C@H](C(=O)N[C@@H](CCC(N)=O)C(=O)N[C@@H](CCC(N)=O)C(=O)N[C@@H](CCCNC(=N)N)C(=O)N[C@@H](CCCCN)C(=O)N[C@@H](CCC(=O)O)C(=O)N[C@@H](CO)C(=O)N[C@@H](CCCCN)C(=O)N[C@@H](CCCCN)C(=O)N1CCC[C@H]1C(=O)N1CCC[C@H]1C(=O)N[C@@H](C)C(=O)N[C@@H](CCCCN)C(=O)N[C@@H](CC(C)C)C(=O)N[C@@H](CCC(N)=O)C(=O)N1CCC[C@H]1C(=O)N[C@@H](CCCNC(=N)N)C(=O)O)C(C)C |  | patients with chronic HFrEF | iv infusion, 0.1 µg/kg/min, 60 min into infusion, scale 1-10, median | direction not given | thirst score | 4
CCNC(=O)NC1CC=C(c2cc3c(Nc4cc5ncsc5cc4F)ncnc3s2)CC1 (racemic) |  | human liver microsomes | 1 µM |  | intrinsic clearance | < 12 mL/min/g protein
C/C=C/CNC(=N)NCCCCCCCCN1CCCCCCOc2ccccc2CNC(=N)NC1=O | PAMPA | egg phosphatidylcholine in dodecane | 500 µM, 5 h, pH 7.4, room temperature |  | membrane retention | 50.8%
